Measured values pooled from the literature.
Each numbered part is a random draw from the data of one study; scales do not carry over between parts.
Sequence of UniProt Q9H4A3 (whole entry, looked up): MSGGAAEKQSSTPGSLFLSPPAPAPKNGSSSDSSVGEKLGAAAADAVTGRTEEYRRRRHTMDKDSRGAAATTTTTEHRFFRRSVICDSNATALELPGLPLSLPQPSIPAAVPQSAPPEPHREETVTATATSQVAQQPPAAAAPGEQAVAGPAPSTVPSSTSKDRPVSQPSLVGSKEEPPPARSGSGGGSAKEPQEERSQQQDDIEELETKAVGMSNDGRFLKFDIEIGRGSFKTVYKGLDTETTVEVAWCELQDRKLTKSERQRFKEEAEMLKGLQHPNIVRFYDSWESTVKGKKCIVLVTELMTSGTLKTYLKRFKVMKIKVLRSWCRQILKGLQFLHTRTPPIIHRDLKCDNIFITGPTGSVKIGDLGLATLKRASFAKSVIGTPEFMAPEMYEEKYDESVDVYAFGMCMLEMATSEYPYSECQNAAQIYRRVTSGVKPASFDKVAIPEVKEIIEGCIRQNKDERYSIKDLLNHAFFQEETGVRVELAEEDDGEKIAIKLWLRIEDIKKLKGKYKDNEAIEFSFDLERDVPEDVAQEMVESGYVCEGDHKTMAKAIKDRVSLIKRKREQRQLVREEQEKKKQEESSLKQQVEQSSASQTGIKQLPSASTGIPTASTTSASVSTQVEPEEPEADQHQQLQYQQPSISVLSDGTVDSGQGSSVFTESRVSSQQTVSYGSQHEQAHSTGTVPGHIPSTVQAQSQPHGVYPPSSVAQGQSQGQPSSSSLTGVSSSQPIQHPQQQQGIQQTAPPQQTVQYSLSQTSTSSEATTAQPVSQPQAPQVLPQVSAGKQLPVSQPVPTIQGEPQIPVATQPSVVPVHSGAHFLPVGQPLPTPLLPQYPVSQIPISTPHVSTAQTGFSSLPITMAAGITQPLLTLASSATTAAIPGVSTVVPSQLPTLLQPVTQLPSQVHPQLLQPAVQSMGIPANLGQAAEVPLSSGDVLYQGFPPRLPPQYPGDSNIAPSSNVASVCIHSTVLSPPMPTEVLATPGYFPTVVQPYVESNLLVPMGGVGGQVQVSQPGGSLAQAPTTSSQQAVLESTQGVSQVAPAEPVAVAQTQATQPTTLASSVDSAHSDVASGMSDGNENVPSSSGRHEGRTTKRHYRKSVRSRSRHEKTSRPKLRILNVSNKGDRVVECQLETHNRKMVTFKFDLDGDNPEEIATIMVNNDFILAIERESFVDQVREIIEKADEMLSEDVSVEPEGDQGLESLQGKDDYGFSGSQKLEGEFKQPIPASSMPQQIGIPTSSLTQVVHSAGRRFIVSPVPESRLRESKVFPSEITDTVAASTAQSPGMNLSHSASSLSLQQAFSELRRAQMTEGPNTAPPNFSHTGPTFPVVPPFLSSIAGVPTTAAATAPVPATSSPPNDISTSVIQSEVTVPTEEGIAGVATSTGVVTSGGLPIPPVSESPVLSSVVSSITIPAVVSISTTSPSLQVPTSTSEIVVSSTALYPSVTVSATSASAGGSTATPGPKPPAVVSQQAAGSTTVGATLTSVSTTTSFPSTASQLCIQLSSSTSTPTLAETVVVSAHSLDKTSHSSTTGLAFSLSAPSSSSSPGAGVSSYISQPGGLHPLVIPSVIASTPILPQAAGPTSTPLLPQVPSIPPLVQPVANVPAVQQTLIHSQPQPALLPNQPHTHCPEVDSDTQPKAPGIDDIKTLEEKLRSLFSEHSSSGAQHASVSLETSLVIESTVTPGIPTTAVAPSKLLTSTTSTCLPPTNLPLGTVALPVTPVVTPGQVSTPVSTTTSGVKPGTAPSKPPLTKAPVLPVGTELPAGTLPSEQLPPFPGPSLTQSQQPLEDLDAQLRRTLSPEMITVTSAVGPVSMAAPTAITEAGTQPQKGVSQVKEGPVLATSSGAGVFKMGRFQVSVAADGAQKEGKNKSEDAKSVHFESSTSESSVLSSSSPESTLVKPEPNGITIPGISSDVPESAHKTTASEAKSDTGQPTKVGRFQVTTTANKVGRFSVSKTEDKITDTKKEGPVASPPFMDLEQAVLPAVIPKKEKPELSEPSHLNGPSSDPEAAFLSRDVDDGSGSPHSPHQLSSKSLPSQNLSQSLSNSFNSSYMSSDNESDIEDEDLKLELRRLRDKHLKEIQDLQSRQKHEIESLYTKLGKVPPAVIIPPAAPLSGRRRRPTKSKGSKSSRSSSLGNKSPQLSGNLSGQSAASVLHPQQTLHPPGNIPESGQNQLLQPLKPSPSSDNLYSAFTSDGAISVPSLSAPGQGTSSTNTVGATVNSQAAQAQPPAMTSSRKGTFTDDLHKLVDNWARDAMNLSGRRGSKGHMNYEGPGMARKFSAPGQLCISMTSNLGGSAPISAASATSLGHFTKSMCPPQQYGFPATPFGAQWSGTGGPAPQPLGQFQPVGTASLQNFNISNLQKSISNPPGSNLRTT
Sequence of UniProt P07948 (whole entry, looked up): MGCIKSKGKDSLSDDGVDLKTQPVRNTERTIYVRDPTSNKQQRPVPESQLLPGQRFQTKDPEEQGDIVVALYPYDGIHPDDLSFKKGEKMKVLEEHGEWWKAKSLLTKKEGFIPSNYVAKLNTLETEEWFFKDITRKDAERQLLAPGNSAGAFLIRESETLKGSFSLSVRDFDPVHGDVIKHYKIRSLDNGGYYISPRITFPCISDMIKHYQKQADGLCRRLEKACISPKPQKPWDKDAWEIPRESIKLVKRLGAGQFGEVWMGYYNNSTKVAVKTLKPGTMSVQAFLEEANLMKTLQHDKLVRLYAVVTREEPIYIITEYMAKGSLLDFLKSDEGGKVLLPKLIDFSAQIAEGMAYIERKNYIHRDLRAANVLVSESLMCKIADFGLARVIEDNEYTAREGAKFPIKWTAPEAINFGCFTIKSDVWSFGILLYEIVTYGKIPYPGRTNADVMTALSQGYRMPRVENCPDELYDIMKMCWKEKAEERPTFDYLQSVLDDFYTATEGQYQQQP
Sequence of UniProt Q9NRH2 (whole entry, looked up): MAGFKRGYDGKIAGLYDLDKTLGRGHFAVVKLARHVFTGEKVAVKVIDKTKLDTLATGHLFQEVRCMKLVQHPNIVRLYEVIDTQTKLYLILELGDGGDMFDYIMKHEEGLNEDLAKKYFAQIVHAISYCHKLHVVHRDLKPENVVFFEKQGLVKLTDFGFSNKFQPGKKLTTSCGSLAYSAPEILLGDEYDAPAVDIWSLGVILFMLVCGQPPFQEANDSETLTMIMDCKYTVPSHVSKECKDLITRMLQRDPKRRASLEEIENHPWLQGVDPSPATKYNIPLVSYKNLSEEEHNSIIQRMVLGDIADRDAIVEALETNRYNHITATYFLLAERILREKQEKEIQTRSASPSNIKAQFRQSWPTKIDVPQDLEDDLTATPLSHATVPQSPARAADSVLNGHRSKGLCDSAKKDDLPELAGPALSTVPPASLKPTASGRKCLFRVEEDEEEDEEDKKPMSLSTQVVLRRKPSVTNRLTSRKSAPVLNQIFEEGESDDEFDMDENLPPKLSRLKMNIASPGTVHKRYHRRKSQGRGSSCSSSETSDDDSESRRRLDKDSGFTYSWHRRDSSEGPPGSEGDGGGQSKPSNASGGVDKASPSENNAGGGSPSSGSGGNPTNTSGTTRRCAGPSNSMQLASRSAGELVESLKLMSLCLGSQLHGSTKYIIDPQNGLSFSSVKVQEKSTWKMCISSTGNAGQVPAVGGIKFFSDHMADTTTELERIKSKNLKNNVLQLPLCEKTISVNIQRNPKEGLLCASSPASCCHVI
Sequence of UniProt Q96D53 (whole entry, looked up): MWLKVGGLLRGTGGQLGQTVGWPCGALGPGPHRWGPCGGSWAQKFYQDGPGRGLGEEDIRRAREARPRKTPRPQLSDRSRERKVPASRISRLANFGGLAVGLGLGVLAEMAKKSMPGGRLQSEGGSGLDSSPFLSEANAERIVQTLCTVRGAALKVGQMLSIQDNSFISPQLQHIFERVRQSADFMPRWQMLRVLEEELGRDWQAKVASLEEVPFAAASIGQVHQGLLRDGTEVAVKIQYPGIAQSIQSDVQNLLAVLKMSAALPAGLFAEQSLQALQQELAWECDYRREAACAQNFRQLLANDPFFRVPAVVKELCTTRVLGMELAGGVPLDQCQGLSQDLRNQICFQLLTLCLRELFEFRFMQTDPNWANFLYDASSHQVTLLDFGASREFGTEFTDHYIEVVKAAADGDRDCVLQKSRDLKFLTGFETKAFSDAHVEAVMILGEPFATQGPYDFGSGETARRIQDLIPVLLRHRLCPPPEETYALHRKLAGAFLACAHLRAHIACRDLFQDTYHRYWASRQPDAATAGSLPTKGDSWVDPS

Block 1 — organism: Sarcocystis neurona; effect on: parasite growth; tested at: 10 µM; time: 96 h
| Compound | inhibition |
| --- | --- |
| CC(=O)OCC(CCn1cnc2cnc(N)nc21)COC(C)=O | -10.6% |
| COCCCC/C(=N\OCCN)c1ccc(C(F)(F)F)cc1 | -3.1% |
| CCOc1cc(CC(=O)N[C@@H](CC(C)C)c2ccccc2N2CCCCC2)ccc1C(=O)O | -4.2% |
| CCn1cc(C(=O)O)c(=O)c2cc(F)c(N3CCN(C)CC3)cc21 | -3.9% |
| OCCN1C[C@H](O)[C@@H](O)[C@H](O)[C@H]1CO | -6.2% |
| O=c1cnn([C@@H]2O[C@H](CO)[C@@H](O)[C@H]2O)c(=O)[nH]1 | -16.2% |
| CC=CC(=O)N(CC)c1ccccc1C (mixture of isomers) | -17.6% |
| CCCCN1CCCC1CNC(=O)c1cc(C#N)c2ccccc2c1OC (centres unmarked) | -7.9% |
| COc1ccc(OC)c(C(O)CNC(=O)CN)c1 (centres unmarked) | -17.7% |
| CN(C)CCc1c[nH]c2ccc(C[C@H]3COC(=O)N3)cc12 | -9.5% |
| CNC(=C[N+](=O)[O-])NCCSCc1csc(CN(C)C)n1 | -18.6% |
| CCCc1c(OCCCCc2nnn[nH]2)ccc(C(C)=O)c1O | -15.5% |
| NC[C@H]1CC[C@H](C(=O)Oc2ccc(CCC(=O)O)cc2)CC1 | -9.3% |
| Cc1ccsc1C(=CCCN1CCC[C@@H](C(=O)O)C1)c1sccc1C | -18.7% |
| O=C1c2c(O)cc(O)cc2OC(c2ccc(O)c(O)c2)C1O (centres unmarked) | -7.4% |
| COc1ccccc1OCC(O)CN1CCN(CC(=O)Nc2c(C)cccc2C)CC1 (centres unmarked) | -3% |
| C=CC1=C(C(=O)O)N2C(=O)[C@@H](NC(=O)/C(=N\OCC(=O)O)c3csc(N)n3)[C@H]2SC1 | -11.1% |

Block 2 — effect on: cell-free assay; technique: competition with immobilised ligand; tested at: 0.1 µM
SMILES: Cn1nc(C(=O)NCc2ccc(C(=O)O)cc2)cc1-c1ccc2[nH]ccc2c1
| target | remaining binding |
| --- | --- |
| Serine/threonine-protein kinase WNK1 (WNK1, Homo sapiens, UniProt Q9H4A3) | 100% |
| Phosphatidylinositol 4-phosphate 3-kinase C2 domain-containing subunit beta (PIK3C2B, Homo sapiens, UniProt O00750) | 78% |
| NUAK family SNF1-like kinase 1 (NUAK1, Homo sapiens, UniProt O60285) | 70% |
| Receptor tyrosine-protein kinase erbB-4 (ERBB4, Homo sapiens, UniProt Q15303) | 98% |
| Tyrosine-protein kinase Lyn (LYN, Homo sapiens, UniProt P07948) | 100% |
| Non-receptor tyrosine-protein kinase TYK2, JH1 (TYK2, Homo sapiens, UniProt P29597) | 82% |
| Atypical kinase COQ8B, mitochondrial (COQ8B, Homo sapiens, UniProt Q96D53) | 100% |
| SNF-related serine/threonine-protein kinase (SNRK, Homo sapiens, UniProt Q9NRH2) | 92% |
| Serine/threonine-protein kinase D1 (PRKD1, Homo sapiens, UniProt Q15139) | 95% |
| Tyrosine-protein kinase Yes (YES1, Homo sapiens, UniProt P07947) | 84% |
| RAC-beta serine/threonine-protein kinase (AKT2, Homo sapiens, UniProt P31751) | 96% |
| Tyrosine-protein kinase FRK (FRK, Homo sapiens, UniProt P42685) | 100% |
| Epidermal growth factor receptor (EGFR, Homo sapiens, UniProt P00533, del746-750) | 100% |
| Protein-tyrosine kinase 2-beta (PTK2B, Homo sapiens, UniProt Q14289) | 96% |
| Receptor-type tyrosine-protein kinase FLT3 (FLT3, Homo sapiens, UniProt P36888, D835Y) | 81% |

Block 3 — effect on: enzyme activity; action: inhibitor; tested at: 0.5 µM; relative to: control
Target: Mitogen-activated protein kinase 8 (MAPK8, Homo sapiens, UniProt P45983)
Sequence of UniProt P45983 (whole entry, looked up): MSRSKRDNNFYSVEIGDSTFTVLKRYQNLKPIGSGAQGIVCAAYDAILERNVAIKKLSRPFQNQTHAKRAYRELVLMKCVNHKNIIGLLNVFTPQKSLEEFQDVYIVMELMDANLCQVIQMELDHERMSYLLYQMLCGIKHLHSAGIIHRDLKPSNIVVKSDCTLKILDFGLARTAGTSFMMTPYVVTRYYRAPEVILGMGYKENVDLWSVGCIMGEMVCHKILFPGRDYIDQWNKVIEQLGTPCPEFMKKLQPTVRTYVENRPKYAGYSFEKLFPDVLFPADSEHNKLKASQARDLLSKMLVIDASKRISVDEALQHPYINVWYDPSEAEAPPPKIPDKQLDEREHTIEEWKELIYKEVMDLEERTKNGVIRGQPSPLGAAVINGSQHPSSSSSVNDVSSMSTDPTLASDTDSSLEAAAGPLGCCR
| Compound | remaining activity |
| --- | --- |
| Cc1nc(Nc2ncc(C(=O)Nc3c(C)cccc3Cl)s2)cc(N2CCN(CCO)CC2)n1 | 106% |
| O=c1cc(N2CCOCC2)oc2c1ccc1ccccc12 | 97.2% |
| CN(C)CCCn1cc(C2=C(c3c[nH]c4ccccc34)C(=O)NC2=O)c2ccccc21 | 90.2% |
| CCN1/C(=C/C(C)=O)Sc2ccc(OC)cc21 | 102% |
| CCOc1cc2ncnc(Nc3cccc(Br)c3)c2cc1OCC | 90.7% |
| COc1cc2ncnc(Nc3ccc(OCc4ccccc4)cc3)c2cc1OC | 102% |
| Nc1[nH]nc2nnc(-c3c(-c4ccccc4)nn4ccccc34)cc12 | 98% |
| COc1cc2ncnc(N3CCN(C(=O)Nc4ccc(Oc5ccccc5)cc4)CC3)c2cc1OC | 90.5% |
| Cc1ccc(NC(=O)c2ccc(CN3CCN(C)CC3)cc2)cc1Nc1nccc(-c2cccnc2)n1 | 93.9% |
| COc1ccc(-c2cnc3c(-c4ccsc4)cnn3c2)cc1 | 100% |
| CC(C)c1nn(-c2c(Cl)cccc2Cl)c2nc(Cc3ccc(OCCO)cc3)[nH]c(=O)c12 | 95.4% |
| CCC(=O)Nc1ccc2ncnc(Nc3cccc(Br)c3)c2c1 | 73.7% |
| COc1ccc(Cl)cc1NC(=O)Nc1cc(C)nc2ccccc12 | 104% |
| CC(=O)O/N=C1/C(c2c(O)[nH]c3cc(Br)ccc23)=Nc2ccccc21 | 88.9% |
| CC(C)[C@H](CO)Nc1nc(Nc2cccc(Cl)c2)c2ncn(C(C)C)c2n1 | 99% |
| O=C(Nc1ccc(Cl)cc1)c1ccccc1NCc1ccncc1 | 109% |
| CS(=O)(=O)CCNCc1ccc(-c2ccc3ncnc(Nc4ccc(OCc5cccc(F)c5)c(Cl)c4)c3c2)o1 | 91.9% |
| COc1cc2ncc(-c3ccccc3)nc2cc1OC | 102% |
| Cn1cnc2cc3c(Nc4cccc(Br)c4)ncnc3cc21 | 96.9% |
| Cn1cc(/C=C2\C(=O)Nc3ccc(S(N)(=O)=O)cc32)c2ccccc21 | 108% |
| C[S+]([O-])c1ccc(-c2nc(-c3ccncc3)c(-c3ccc(F)cc3)[nH]2)cc1 (centres unmarked) | 96.1% |
| O=C1NC(=O)/C(=C/c2ccc3nccnc3c2)S1 | 91.5% |

Block 4 — cell line: A-375; tested at: 100 µM; time: 18 h
| SMILES | viability [%] |
| --- | --- |
| CCCC1O[C@@H]2C[C@H]3[C@@H]4CCC5=CC(=O)C=C[C@]5(C)[C@H]4[C@@H](O)C[C@]3(C)[C@]2(C(=O)CO)O1 (some centres unmarked) | 37.9 |
| CC(=O)OCC(=O)[C@@]1(O)CC[C@H]2[C@@H]3CCC4=CC(=O)CC[C@]4(C)[C@H]3C(=O)C[C@@]21C | 105 |
| N=C1CCCN1Cc1[nH]c(=O)[nH]c(=O)c1Cl | 86.6 |
| CC(=O)OCC(=O)[C@@]12OC(C)(C)O[C@@H]1C[C@H]1[C@@H]3C[C@H](F)C4=CC(=O)C=C[C@]4(C)[C@@]3(F)[C@@H](O)C[C@@]12C | 103 |
| COC(c1ccccc1)(c1ccccc1)[C@H](Oc1nc(C)cc(C)n1)C(=O)O | 106 |
| N[C@@H](Cc1cc(I)c(Oc2cc(I)c(O)c(I)c2)c(I)c1)C(=O)O | 75 |
| O=C(c1ccc(OCCN2CCCCC2)cc1)c1c(-c2ccc(O)cc2)sc2cc(O)ccc12 | 9.1 |
| C/C=C/c1ccc(OC)cc1 | 79.9 |
| CCCc1nc2c(C)cc(-c3nc4ccccc4n3C)cc2n1Cc1ccc(-c2ccccc2C(=O)O)cc1 | 76 |
| C[C@]12CCC(=O)C=C1CC[C@@H]1[C@@H]2C(=O)C[C@@]2(C)[C@H]1CC[C@]2(O)C(=O)CO | 91.3 |
| Cc1[nH]cnc1CN1CCc2c(c3ccccc3n2C)C1=O | 91.5 |
| CCCCCCCCCCCCCCCCCCCCCCO | 96.1 |
| N[C@H]1CONC1=O | 99.2 |
| COC(=O)C1=C(C)NC(C)=C(C(=O)OC(C)(C)CN(C)CCC(c2ccccc2)c2ccccc2)C1c1cccc([N+](=O)[O-])c1 (centres unmarked) | 68.3 |

Excerpt of the above (block 4):
| SMILES | viability [%] |
| --- | --- |
| N=C1CCCN1Cc1[nH]c(=O)[nH]c(=O)c1Cl | 86.6 |
| COC(c1ccccc1)(c1ccccc1)[C@H](Oc1nc(C)cc(C)n1)C(=O)O | 106 |
| N[C@@H](Cc1cc(I)c(Oc2cc(I)c(O)c(I)c2)c(I)c1)C(=O)O | 75 |
| C[C@]12CCC(=O)C=C1CC[C@@H]1[C@@H]2C(=O)C[C@@]2(C)[C@H]1CC[C@]2(O)C(=O)CO | 91.3 |
| CC(=O)OCC(=O)[C@@]1(O)CC[C@H]2[C@@H]3CCC4=CC(=O)CC[C@]4(C)[C@H]3C(=O)C[C@@]21C | 105 |
| COC(=O)C1=C(C)NC(C)=C(C(=O)OC(C)(C)CN(C)CCC(c2ccccc2)c2ccccc2)C1c1cccc([N+](=O)[O-])c1 (centres unmarked) | 68.3 |
| C/C=C/c1ccc(OC)cc1 | 79.9 |
